Published values pooled from the literature.
Each numbered part is a random draw from the data of one study; scales do not carry over between parts. Values joined by “and” are separate records of one study, mostly repeats; a detail may differ.
UniProt P21802, sequence (whole entry, looked up): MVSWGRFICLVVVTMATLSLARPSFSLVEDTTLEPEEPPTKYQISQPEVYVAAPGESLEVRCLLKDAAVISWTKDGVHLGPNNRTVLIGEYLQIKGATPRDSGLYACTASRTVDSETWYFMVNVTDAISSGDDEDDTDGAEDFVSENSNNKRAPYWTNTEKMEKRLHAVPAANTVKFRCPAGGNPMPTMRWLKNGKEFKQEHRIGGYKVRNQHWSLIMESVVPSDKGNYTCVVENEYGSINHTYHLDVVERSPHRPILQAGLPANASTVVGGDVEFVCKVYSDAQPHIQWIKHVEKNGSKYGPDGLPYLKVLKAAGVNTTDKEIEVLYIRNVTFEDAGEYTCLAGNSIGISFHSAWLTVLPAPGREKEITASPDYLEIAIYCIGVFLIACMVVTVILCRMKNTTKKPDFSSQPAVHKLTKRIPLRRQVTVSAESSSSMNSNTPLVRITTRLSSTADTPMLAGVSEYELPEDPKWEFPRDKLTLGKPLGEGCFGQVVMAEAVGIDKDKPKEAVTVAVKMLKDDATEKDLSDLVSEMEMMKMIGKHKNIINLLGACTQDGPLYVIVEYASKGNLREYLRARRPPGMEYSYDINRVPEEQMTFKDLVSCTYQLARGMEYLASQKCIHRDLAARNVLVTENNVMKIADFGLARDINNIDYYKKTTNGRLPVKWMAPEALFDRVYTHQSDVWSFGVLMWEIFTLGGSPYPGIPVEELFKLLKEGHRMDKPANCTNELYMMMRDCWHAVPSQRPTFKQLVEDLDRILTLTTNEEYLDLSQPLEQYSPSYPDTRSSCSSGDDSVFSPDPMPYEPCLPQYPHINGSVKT
UniProt P80192, sequence (whole entry, looked up): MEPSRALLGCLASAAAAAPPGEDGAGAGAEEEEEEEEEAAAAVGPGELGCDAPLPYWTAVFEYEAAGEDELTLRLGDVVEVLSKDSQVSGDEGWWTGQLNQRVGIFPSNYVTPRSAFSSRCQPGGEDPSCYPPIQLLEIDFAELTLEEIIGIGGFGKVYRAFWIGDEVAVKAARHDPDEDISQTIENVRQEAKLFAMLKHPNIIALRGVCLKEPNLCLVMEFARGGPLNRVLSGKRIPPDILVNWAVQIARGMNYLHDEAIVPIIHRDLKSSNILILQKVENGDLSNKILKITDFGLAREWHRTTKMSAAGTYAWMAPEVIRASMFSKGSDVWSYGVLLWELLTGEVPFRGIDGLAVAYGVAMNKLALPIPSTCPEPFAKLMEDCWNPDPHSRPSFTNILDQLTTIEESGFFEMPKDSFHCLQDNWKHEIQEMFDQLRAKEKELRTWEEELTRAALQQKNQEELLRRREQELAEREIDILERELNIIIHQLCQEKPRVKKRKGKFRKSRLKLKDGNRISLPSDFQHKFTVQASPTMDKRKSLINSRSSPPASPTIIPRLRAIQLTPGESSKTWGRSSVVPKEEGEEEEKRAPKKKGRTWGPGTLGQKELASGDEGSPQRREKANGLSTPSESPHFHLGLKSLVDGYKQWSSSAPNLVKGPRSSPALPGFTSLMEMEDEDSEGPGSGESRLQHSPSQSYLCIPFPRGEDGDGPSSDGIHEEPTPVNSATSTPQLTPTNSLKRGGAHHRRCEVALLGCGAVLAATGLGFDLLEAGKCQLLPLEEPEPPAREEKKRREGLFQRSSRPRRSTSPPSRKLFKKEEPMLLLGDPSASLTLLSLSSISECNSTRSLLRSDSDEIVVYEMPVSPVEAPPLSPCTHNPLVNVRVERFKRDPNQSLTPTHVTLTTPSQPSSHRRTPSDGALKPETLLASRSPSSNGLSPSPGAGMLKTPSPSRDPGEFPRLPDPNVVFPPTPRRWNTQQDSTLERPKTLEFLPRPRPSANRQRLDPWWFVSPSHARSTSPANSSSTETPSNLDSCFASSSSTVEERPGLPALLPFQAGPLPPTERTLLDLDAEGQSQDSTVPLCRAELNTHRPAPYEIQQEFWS
UniProt O94806, sequence (whole entry, looked up): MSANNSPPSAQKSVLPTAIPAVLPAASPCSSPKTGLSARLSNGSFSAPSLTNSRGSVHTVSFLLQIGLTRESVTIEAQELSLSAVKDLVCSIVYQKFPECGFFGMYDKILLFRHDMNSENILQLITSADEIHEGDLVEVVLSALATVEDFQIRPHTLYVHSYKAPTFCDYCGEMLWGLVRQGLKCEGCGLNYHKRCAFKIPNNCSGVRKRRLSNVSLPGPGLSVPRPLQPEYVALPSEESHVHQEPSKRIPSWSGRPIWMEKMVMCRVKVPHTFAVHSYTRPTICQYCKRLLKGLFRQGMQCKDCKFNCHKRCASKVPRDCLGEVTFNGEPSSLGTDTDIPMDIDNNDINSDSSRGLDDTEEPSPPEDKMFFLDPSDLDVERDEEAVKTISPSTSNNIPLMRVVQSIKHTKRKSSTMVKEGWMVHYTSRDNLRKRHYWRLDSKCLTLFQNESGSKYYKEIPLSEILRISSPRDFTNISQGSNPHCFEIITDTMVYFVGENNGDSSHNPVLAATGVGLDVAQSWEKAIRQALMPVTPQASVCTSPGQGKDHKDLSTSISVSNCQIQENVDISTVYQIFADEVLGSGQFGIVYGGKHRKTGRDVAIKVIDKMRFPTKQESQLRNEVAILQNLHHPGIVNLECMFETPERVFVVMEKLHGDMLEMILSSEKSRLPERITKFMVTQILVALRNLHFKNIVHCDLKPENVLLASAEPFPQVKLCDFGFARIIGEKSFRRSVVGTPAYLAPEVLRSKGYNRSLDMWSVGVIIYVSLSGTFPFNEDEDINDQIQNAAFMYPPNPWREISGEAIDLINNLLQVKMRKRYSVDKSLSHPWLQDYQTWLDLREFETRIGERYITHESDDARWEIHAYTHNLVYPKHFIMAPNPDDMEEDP
UniProt O43353, sequence (whole entry, looked up): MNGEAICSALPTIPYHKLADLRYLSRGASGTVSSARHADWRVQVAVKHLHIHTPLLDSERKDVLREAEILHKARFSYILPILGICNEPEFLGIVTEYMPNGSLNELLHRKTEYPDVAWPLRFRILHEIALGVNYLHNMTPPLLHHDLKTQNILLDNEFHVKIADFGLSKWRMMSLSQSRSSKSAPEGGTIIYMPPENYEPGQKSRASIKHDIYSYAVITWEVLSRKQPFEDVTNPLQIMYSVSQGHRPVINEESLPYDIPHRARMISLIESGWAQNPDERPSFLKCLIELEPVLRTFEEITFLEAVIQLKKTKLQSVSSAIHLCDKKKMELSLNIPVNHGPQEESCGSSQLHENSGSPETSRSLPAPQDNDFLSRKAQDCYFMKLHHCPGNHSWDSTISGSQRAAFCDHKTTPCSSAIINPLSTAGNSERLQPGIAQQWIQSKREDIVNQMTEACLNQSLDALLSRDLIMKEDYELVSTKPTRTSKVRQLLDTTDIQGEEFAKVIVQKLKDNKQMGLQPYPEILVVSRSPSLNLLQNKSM
UniProt Q07912, sequence (whole entry, looked up): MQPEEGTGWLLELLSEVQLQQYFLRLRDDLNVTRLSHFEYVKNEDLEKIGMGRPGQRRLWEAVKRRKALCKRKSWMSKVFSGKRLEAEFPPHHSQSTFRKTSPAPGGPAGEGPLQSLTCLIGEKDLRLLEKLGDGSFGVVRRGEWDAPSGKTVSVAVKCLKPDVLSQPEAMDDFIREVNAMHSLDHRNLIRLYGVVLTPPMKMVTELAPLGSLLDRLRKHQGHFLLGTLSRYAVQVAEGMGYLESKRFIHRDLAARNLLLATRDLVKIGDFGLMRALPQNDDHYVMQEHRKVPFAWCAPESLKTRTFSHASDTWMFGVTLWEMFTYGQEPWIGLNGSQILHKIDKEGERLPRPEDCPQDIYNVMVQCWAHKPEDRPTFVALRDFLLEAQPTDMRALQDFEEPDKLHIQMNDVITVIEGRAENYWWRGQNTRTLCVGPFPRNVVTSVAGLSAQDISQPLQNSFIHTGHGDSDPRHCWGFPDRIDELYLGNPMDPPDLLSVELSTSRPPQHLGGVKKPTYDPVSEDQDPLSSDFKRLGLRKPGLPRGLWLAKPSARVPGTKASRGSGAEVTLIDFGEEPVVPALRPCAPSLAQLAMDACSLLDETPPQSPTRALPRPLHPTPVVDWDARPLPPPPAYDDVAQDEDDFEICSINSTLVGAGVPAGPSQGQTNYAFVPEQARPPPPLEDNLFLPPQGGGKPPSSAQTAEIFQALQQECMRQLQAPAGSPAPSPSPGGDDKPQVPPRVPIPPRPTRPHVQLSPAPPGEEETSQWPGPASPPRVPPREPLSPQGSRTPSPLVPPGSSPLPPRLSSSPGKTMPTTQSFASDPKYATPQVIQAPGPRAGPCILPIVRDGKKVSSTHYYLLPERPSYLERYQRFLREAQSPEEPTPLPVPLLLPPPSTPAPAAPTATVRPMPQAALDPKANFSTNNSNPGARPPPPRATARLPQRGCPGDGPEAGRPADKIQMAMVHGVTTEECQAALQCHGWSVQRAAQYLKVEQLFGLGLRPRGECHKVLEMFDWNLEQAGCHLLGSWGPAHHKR

Set 1
SMILES: CC(=O)N[C@@H](Cc1c[nH]c2ccccc12)C(=O)N[C@@H](CCC(=O)C=[N+]=[N-])C(=O)OC(C)C
For C57BL/6 CES1-/- mouse, both sexes; 0.3 mg/kg, day 16: body weight read 104% and 95.7% and 100% and 96.4%.
For C57BL/6 CES1-/- mouse, EL4 tumour; intravenous, 1 mg/kg DON equivalent, treatment day 15, 5 days per week; relative to: baseline: body weight read 96% and 110% and 93% and 100% and 97%.
For C57BL/6 CES1-/- mouse, both sexes; 0.1 mg/kg, day 17: body weight read 109% and 105% and 100% and 118%.
For C57BL/6 CES1-/- mouse, EL4 tumour; intravenous, 1 mg/kg DON equivalent, treatment day 10, 5 days per week; relative to: baseline: body weight read 100% and 96% and 93% and 92% and 105%.
It gave 97% and 95.5% and 105% and 96.6% and 90.9% for body weight (C57BL/6 CES1-/- mouse, both sexes; 1 mg/kg, day 9).
For C57BL/6 CES1-/- mouse, both sexes; 1 mg/kg, day 7: body weight read 100%.

Set 2 — cell line: Huh-7; tested at: 10 µM; time: 24 h
The viability of `Nc1ccncc1` is reported as 97.6%.
With `O=c1[nH]c2ccccc2n1C1CCN(CCCC(c2ccc(F)cc2)c2ccc(F)cc2)CC1` the viability was 90.9%.
With `Cl[C@H]1[C@H](Cl)[C@@H](Cl)[C@@H](Cl)[C@H](Cl)[C@H]1Cl` the viability was 103%.
For `COP(=O)(OC)OC=C(Cl)Cl`, the viability was 94.4%.
`COP(=S)(OC)Oc1ccc(Sc2ccc(OP(=S)(OC)OC)cc2)cc1` gave a viability of 104%.
`COc1ccc2c(c1)[C@]13CCCC[C@@H]1[C@H](C2)N(C)CC3` has a viability of 101%.
For `CNC(C)C(O)c1ccccc1` (centres unmarked), the viability was 101%.
`C=CC[C@]1(O)CC[C@H]2[C@@H]3CCC4=CC(=O)CCC4=C3C=C[C@@]21C` has a viability of 88.3%.

Set 3 — organism: Cryptosporidium parvum; technique: qPCR; species: IFN-γ knockout mouse
Compound: CNC(=O)c1ccc(-c2cnn3ccc(C(=O)N(C)c4ccc(Cl)c(C(=O)OC)c4)cc23)cc1
For 3 mg/kg, day 5 post treatment: “faecal oocyst shedding” read 6.09 log oocysts/g faeces.
For 1 mg/kg, day 5 post treatment: “faecal oocyst shedding” read 6.89 log oocysts/g faeces.
The “faecal oocyst shedding” was 6.34 log oocysts/g faeces and 5.58 log oocysts/g faeces and 6.35 log oocysts/g faeces (faeces; 3 mg/kg, day 5 post treatment).
For faeces; 1 mg/kg, day 3 post treatment: “faecal oocyst shedding” read 6.38 log oocysts/g faeces and 6.34 log oocysts/g faeces and 6.5 log oocysts/g faeces.
It gave 6.57 log oocysts/g faeces and 6.38 log oocysts/g faeces and 5.61 log oocysts/g faeces for “faecal oocyst shedding” (faeces; 10 mg/kg, day 1 post treatment).
10 mg/kg, day 1 post treatment — “faecal oocyst shedding”: 6.19 log oocysts/g faeces.
It gave 5.82 log oocysts/g faeces for “faecal oocyst shedding” (3 mg/kg, day 3 post treatment).
For 1 mg/kg, day 3 post treatment: “faecal oocyst shedding” read 6.41 log oocysts/g faeces.

Set 4 — observed: enzyme activity; mode: inhibitor; tested at: 0.5 µM; relative to: control
Compound: COC[C@H]1OC(=O)c2coc3c2[C@@]1(C)C1=C(C3=O)[C@@H]2CCC(=O)[C@@]2(C)C[C@H]1OC(C)=O
The remaining activity was 94.2% (Serine/threonine-protein kinase D3 (PRKD3, Homo sapiens, UniProt O94806)).
It gave 113% for remaining activity (Serine/threonine-protein kinase TAO1 (TAOK1, Homo sapiens, UniProt Q7L7X3)).
The remaining activity was 91.6% (Mitogen-activated protein kinase kinase kinase 9 (MAP3K9, Homo sapiens, UniProt P80192)).
The remaining activity was 95.4% (Fibroblast growth factor receptor 2 (FGFR2, Homo sapiens, UniProt P21802)).
The remaining activity was 102% (Activated CDC42 kinase 1 (TNK2, Homo sapiens, UniProt Q07912)).
For Receptor-interacting serine/threonine-protein kinase 2 (RIPK2, Homo sapiens, UniProt O43353): remaining activity read 99.7%.
It gave 98.1% for remaining activity (Platelet-derived growth factor receptor beta (PDGFRB, Homo sapiens, UniProt P09619)).
